Measured values gathered from unrelated publications.
Lines come from different studies, so protocols differ. Several values in a cell are separate wells, animals, samples, runs or records. ± gives the spread as reported.

SMILES = CC[C@H](C)[C@H](NC(=O)[C@H](CCCNC(=N)N)NC(=O)[C@H](CCC(N)=O)NC(=O)[C@@H](NC(=O)[C@@H](NC(=O)[C@H](CCCNC(=N)N)NC(=O)[C@H](CCCCN)NC(=O)[C@H](Cc1ccccc1)NC(=O)CN)[C@@H](C)CC)C(C)C)C(=O)N[C@@H](CCCCN)C(=O)N[C@@H](CC(=O)O)C(=O)N[C@@H](Cc1ccccc1)C(=O)N[C@@H](CC(C)C)C(=O)N[C@@H](CCCNC(=N)N)C(=O)N[C@@H](CC(N)=O)C(=O)N[C@@H](CC(C)C)C(=O)N[C@H](C(N)=O)C(C)C; cell line = HaCaT; assay = cell viability, MTS; setting = 1 h, 37 °C, 10% FBS; endpoint = LC50; result = 75 µM
SMILES = O=C(O)C(F)(F)C(F)(F)C(F)(F)C(F)(F)C(F)(F)C(F)(F)C(F)(F)C(F)(F)C(F)(F)C(F)(F)F; cell line = hTERT-RPTEC-OAT1; assay = LDH release; system = culture medium; setting = concentration not given, 24 h, 96-well plate; endpoint = LDH activity in medium; result = 3.94 mU/mL
SMILES = O=C1c2ccccc2C(=O)c2ccccc21; cell line = HK-2 co-cultured with HepaRG; assay = MTT; setting = 266.67 µM, 24 h; scale = reference: untreated control; endpoint = viability; result = 129 ± 26.4%
SMILES = O=S(=O)(O)C(F)(F)C(F)(F)C(F)(F)C(F)(F)F; cell line = hTERT-RPTEC-OAT1; setting = concentration not given, Transwell, basolateral-to-apical addition; endpoint = LDH release; result = 60.4 mU/mL and 16.9 mU/mL and 71.7 mU/mL and 12.9 mU/mL
SMILES = N#C[C@H](C[C@@H]1CCCNC1=O)NC(=O)[C@H](CC1CC1)NC(=O)c1cc2cccc(Cl)c2[nH]1; cell line = cryopreserved human hepatocytes; assay = refers to: CYP3A4; setting = 10 µM, 72 h; scale = reference: vehicle; endpoint = mRNA level; result = ≤ 26.4 fold
SMILES = O=c1ccc2ccccc2o1; cell line = HepG2; assay = refers to: cell count; setting = 24 h, inflammation and pH panel; endpoint = point of departure; result = 789 µM
SMILES = O=C(O)C(F)(F)C(F)(F)C(F)(F)C(F)(F)F; cell line = hTERT-RPTEC-OAT1; assay = LDH release; system = culture medium; setting = concentration not given, 24 h, 96-well plate; endpoint = LDH activity in medium; result = 6.27 mU/mL
SMILES = Oc1ccc(C(c2ccc(O)cc2)(C(F)(F)F)C(F)(F)F)cc1; cell line = HepG2 spheroids; assay = annexin V-FITC/PI flow cytometry; setting = 10 µM, 24 h; endpoint = necrotic cells; result = 8.06 ± 3.25%
SMILES = CC[C@@H]1C[C@]1(NC(=O)[C@@H]1C[C@@H]2CN1C(=O)[C@H](C(C)(C)C)NC(=O)OCC(C)(C)CCCCc1cccc3c1CN(C3)C(=O)O2)C(=O)NS(=O)(=O)C1CC1; cell line = HEK293T; assay = cell viability, MTT; setting = 48 (unit not given); endpoint = CC50; result = > 50 µM
SMILES = C=C(C)[C@@]12C[C@@H](COC(=O)c3ccccc3)[C@@]34OC5(O[C@@H]1[C@@H]3[C@@H]1O[C@]1(CO)[C@@H](O)[C@@]1(O)[C@H]4[C@H]([C@H](C)[C@@H]1OC(=O)c1ccccc1)[C@H](C)CCCCCC[C@H]5O)O2; cell line = MT-4; assay = cell viability; endpoint = IC50; result = 4.13 ± 0.43 µM
SMILES = CC[C@H](C)[C@H](N)C(=O)N[C@H](C(=O)N[C@@H](Cc1ccccc1)C(=O)N[C@@H](Cc1c[nH]cn1)C(=O)N[C@H](C(=O)N[C@@H](CCCCN)C(=O)N[C@@H](CCCCN)C(=O)N[C@@H](CCCCN)C(=O)N[C@@H](CC(C)C)C(=O)N[C@@H](CO)C(=O)N[C@H](C(=O)N[C@@H](CS)C(=O)N[C@@H](C)C(=O)N[C@@H](CC(N)=O)C(=O)N1CCC[C@H]1C(=O)N[C@@H](CCCCN)C(=O)N[C@@H](CCC(N)=O)C(=O)N[C@H](C(=O)N[C@@H](Cc1c[nH]c2ccccc12)C(=O)N[C@H](C(=O)N[C@@H](CCCCN)C(=O)N[C@@H](Cc1ccc(O)cc1)C(=O)N[C@H](C(=O)N[C@H](C(=O)N[C@@H](CCCNC(=N)N)C(=O)N[C@@H](CC(C)C)C(=O)N[C@@H](CC(C)C)C(=O)N[C@@H](CO)C(=O)N[C@@H](CCCCN)C(=O)N[C@@H](CCCCN)C(=O)N[C@H](C(=O)N[C@@H](CCCCN)C(=O)O)C(C)C)C(C)C)[C@@H](C)CC)C(C)C)[C@@H](C)O)C(C)C)[C@@H](C)O)[C@@H](C)CC; cell line = HaCaT; assay = cell viability, MTT; setting = 24 h; endpoint = CC50; result = 46.3 µM
SMILES = CC1=C(O)C(=O)C=C2C1=CC=C1[C@@]2(C)CC[C@@]2(C)[C@@H]3C[C@](C)(C(=O)O)CC[C@]3(C)CC[C@]12C; cell line = COS-7; assay = WST-8; setting = 10 µM, 24 h, 0.1% DMSO, unit not given; scale = reference: vehicle control; endpoint = metabolic activity; result = 0.6 ± 0.44
SMILES = O=c1[nH]c(=O)n([C@H]2C[C@H](O)[C@@H](CO)O2)cc1/C=C/Br; cell line = HEL; assay = cell morphology; endpoint = minimal cytotoxic concentration; result = > 250 µM
SMILES = CC(C)C[C@H](NC(=O)[C@H](CCCNC(=N)N)NC(=O)CNC(=O)CNC(=O)CNC(=O)c1ccc2c(c1)C(=O)OC21c2ccc(O)cc2Oc2cc(O)ccc21)C(=O)N[C@@H](CO)C(=O)N[C@@H](CO)C(=O)N[C@H](C(=O)N[C@@H](CC(=O)O)C(=O)N[C@@H](CO)C(=O)N[C@@H](CC(=O)O)C(=O)N[C@@H](CC(C)C)C(=O)N[C@@H](CO)C(=O)NCC(=O)N[C@@H](CS)C(N)=O)C(C)C; cell line = hCMEC/D3 monolayers; assay = BBB permeability, Transwell, refers to: CF-labelled compound; system = EGM-2 medium; setting = concentration not given, 3 h, apical to basal; scale = reference: fluorescence added apically; endpoint = transport ratio; result = 10.8%
SMILES = CC[C@H](C)[C@H](NC(=O)CN)C(=O)NCC(=O)N[C@@H](CCCCN)C(=O)N[C@@H](Cc1ccccc1)C(=O)N[C@@H](CC(C)C)C(=O)N[C@@H](CCCCN)C(=O)N[C@@H](CCCCN)C(=O)N[C@@H](C)C(=O)N[C@@H](CCCCN)C(=O)N[C@@H](CCCCN)C(=O)N[C@@H](Cc1ccccc1)C(=O)NCC(=O)N[C@@H](CCCCN)C(=O)N[C@@H](C)C(=O)N[C@@H](Cc1ccccc1)C(=O)N[C@H](C(=O)N[C@@H](CCCCN)C(=O)N[C@H](C(=O)N[C@@H](CC(C)C)C(=O)N[C@@H](CCCCN)C(=O)N[C@@H](CCCCN)C(N)=O)[C@@H](C)CC)C(C)C; cell line = rat erythrocytes; setting = 200 µM, 60 min, 37 °C; endpoint = hemolysis; result = 13.5 ± 1.8%
SMILES = CC(=O)OC[C@H]1O[C@@H](Oc2cc(O)cc3cc4oc(C)cc(=O)c4c(O)c23)[C@H](O)[C@@H](O)[C@@H]1O; cell line = HepaRG co-cultured with HK-2; assay = MTT; setting = 266.67 µM, 48 h; scale = reference: untreated control; endpoint = cell viability; result = 46.6 ± 3.51%
SMILES = CC(c1ccccc1)(c1ccc(O)cc1)c1ccc(O)cc1; cell line = HepG2 spheroids, dissociated; assay = annexin V-FITC/PI flow cytometry; setting = 0.01 µM, 96 h; endpoint = viable cells; result = 36.9 ± 11.9%
SMILES = COC(=O)C=Cc1ccc(OC(C)=O)c(OC(C)=O)c1; cell line = HaCaT; assay = MTT; setting = 24 h, 10% FBS; endpoint = subcytotoxic concentration; result = 50 µM
SMILES = CC[C@H](C)[C@H](NC(=O)CN)C(=O)NCC(=O)N[C@@H](C)C(=O)N[C@H](C(=O)N[C@@H](CC(C)C)C(=O)N[C@@H](CCCCN)C(=O)N[C@H](C(=O)N[C@@H](CC(C)C)C(=O)N[C@H](C(=O)N[C@H](C(=O)NCC(=O)N[C@@H](CC(C)C)C(=O)N1CCC[C@H]1C(=O)N[C@@H](C)C(=O)N[C@@H](CC(C)C)C(=O)N[C@H](C(=O)N[C@@H](CO)C(=O)N[C@@H](Cc1c[nH]c2ccccc12)C(=O)N[C@H](C(=O)N[C@@H](CCCCN)C(=O)N[C@@H](CCCNC(=N)N)C(=O)N[C@@H](CCCCN)C(=O)N[C@@H](CCCNC(=N)N)C(=O)N[C@@H](CCC(N)=O)C(=O)N[C@@H](CCC(N)=O)C(N)=O)[C@@H](C)CC)[C@@H](C)CC)[C@@H](C)O)[C@@H](C)O)C(C)C)C(C)C; cell line = IPEC-J2, HEK293 and HCE-T; assay = MTT; endpoint = lowest toxic concentration; result = 8 µM
SMILES = Cc1cc2c(c(O)c1O)C(=O)c1c(O)cc(O)cc1C2=O; cell line = HepaRG co-cultured with HK-2; assay = MTT; setting = 66.67 µM, 48 h; scale = reference: untreated control; endpoint = cell viability; result = 85.5 ± 12.7%
SMILES = CC[C@H](C)[C@H](NC(=O)[C@H](Cc1c[nH]cn1)NC(=O)[C@@H](NC(=O)[C@@H](NC(=O)[C@H](CC(C)C)NC(=O)[C@H](CCCCN)NC(=O)[C@H](CCCCN)NC(=O)[C@@H]1CCCN1C(=O)[C@H](CC(C)C)NC(=O)[C@H](CC(C)C)NC(=O)[C@H](CCC(N)=O)NC(=O)[C@@H](NC(=O)CNC(=O)[C@H](CC(C)C)NC(=O)[C@H](CCC(N)=O)NC(=O)[C@H](CC(C)C)NC(=O)[C@H](CCCNC(=N)N)NC(=O)[C@H](CC(N)=O)NC(=O)[C@H](CCCCN)NC(=O)[C@H](CC(N)=O)NC(=O)[C@H](CCCNC(=N)N)NC(=O)[C@@H](NC(=O)[C@H](CO)NC(=O)[C@H](Cc1ccccc1)NC(=O)[C@H](CC(C)C)NC(=O)[C@H](Cc1ccccc1)NC(=O)[C@H](C)NC(=O)[C@H](CC(N)=O)NC(=O)[C@H](CC(N)=O)NC(=O)[C@@H](NC(=O)[C@H](CCCNC(=N)N)NC(=O)[C@@H](N)Cc1c[nH]cn1)C(C)C)[C@@H](C)CC)C(C)C)C(C)C)C(C)C)C(=O)N[C@@H](CCCNC(=N)N)C(=O)NCC(=O)N[C@@H](CCCCN)C(=O)N[C@@H](CCC(N)=O)C(=O)N1CCC[C@H]1C(=O)N[C@@H](C)C(=O)N[C@H](C(=O)N[C@@H](Cc1ccccc1)C(=O)O)C(C)C; cell line = HaCaT; assay = cell viability, MTT; endpoint = CC50; result = 25.3 µM
SMILES = COP(=O)(OC)OC=C(Cl)Cl; cell line = MCF7 AREc32 cells; assay = cell confluency, IncuCyte imaging; setting = 24 h, nominal concentration; endpoint = IC10; result = 61 µM
SMILES = COc1cc2nc(c1)CNCc1cc(OC)cc(n1)CNC2; cell line = Friedreich's ataxia fibroblasts; assay = MTT; endpoint = LD50; result = 3.23 mM
SMILES = CC(C)c1cccc(C(C)C)c1O; cell line = HaCaT; setting = 100 µM, 24 h; endpoint = viability; result = 93%
SMILES = Cc1cc(C(C)(C)c2ccc(O)c(C)c2)ccc1O; cell line = HepG2 spheroids; assay = annexin V-FITC/PI flow cytometry; setting = 1 µM, 24 h; endpoint = necrotic cells; result = 5.76 ± 1.6%
SMILES = COc1ccc2c(c1OC)C(=O)c1c(cc(C)c(O)c1OC)C2=O; cell line = HepaRG co-cultured with HK-2; assay = MTT; setting = 66.67 µM, 48 h; scale = reference: untreated control; endpoint = cell viability; result = 85.2 ± 2.71%
SMILES = CN(N=O)[C@H]1CC[C@@H](c2ccc(Cl)c(Cl)c2)c2ccccc21; cell line = TK6 expressing CYP2B6; setting = 0.04 µM, 4 h, without S9; scale = reference: vehicle; endpoint = relative survival; result = 28.6%

A few entries again:
SMILES = CN(N=O)[C@H]1CC[C@@H](c2ccc(Cl)c(Cl)c2)c2ccccc21; cell line = TK6 expressing CYP2B6; setting = 0.04 µM, 4 h, without S9; scale = reference: vehicle; endpoint = relative survival; result = 28.6%
SMILES = O=C1c2ccccc2C(=O)c2ccccc21; cell line = HK-2 co-cultured with HepaRG; assay = MTT; setting = 266.67 µM, 24 h; scale = reference: untreated control; endpoint = viability; result = 129 ± 26.4%
SMILES = CC(C)c1cccc(C(C)C)c1O; cell line = HaCaT; setting = 100 µM, 24 h; endpoint = viability; result = 93%
